# Measured values of several laboratories.
# Protocols differ between the studies behind these lines.
# Target: C-X-C chemokine receptor type 4 (CXCR4, Homo sapiens, UniProt P61073)
# UniProt P61073, sequence (whole entry, looked up): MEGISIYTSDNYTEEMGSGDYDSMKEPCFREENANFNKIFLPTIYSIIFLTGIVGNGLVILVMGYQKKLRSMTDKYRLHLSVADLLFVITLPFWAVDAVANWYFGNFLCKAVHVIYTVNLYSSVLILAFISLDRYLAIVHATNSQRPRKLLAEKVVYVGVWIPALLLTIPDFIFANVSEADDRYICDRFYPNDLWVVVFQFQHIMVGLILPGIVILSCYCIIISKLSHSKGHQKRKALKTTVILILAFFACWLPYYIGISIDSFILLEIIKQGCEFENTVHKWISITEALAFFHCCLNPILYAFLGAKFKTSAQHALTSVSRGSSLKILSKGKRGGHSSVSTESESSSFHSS
# Cells: MDA-MB-231
SMILES,test,conditions,quantity,value
CN(Cc1cccnc1)Cc1cccc(CN(C)Cc2cccnc2)n1,"binding, competition binding","semi-quantitative screen, together with: biotinylated TN14003",lowest effective concentration,> 1000 nM
CCN(CC)Cc1ccc(S(=O)(=O)N(C)Cc2ccccc2)cc1,"competitive binding, inhibitor, rhodamine fluorescence","lowest significant concentration, together with: biotinylated ligand",effective concentration,10 nM
CN(Cc1ccc(CN(C)Cc2ccccn2)cc1)Cc1ccccn1,"binding, competition binding","semi-quantitative screen, together with: biotinylated TN14003",lowest effective concentration,> 1000 nM
Cc1ccccc1S(=O)(=O)NCc1ccc(CNC(=O)c2ccc(F)cc2)cc1,"binding, competitor, rhodamine fluorescence","semi-quantitative screen, together with: biotinylated TN14003",lowest effective concentration,100 nM
O=C(NCc1ccc(CNS(=O)(=O)c2cccc(F)c2)cc1)c1ccc(CNc2ncccn2)cc1,"binding, competitive inhibitor, competitive binding","semi-quantitative rhodamine readout, together with: biotinylated TN14003",lowest effective concentration,1000 nM
O=C(NCc1ccc(CNS(=O)(=O)c2ccc(CN3CCOCC3)cc2)cc1)c1ccc(F)cc1,"binding, competitor, rhodamine fluorescence","semi-quantitative screen, together with: biotinylated TN14003",lowest effective concentration,10 nM
CN(Cc1ccccc1)S(=O)(=O)c1ccc(CNCc2ccccn2)cc1,"competitive binding, inhibitor, rhodamine fluorescence","lowest significant concentration, together with: biotinylated ligand",effective concentration,100 nM
CCN(CC)Cc1ccc(S(=O)(=O)NCc2ccc(CNC(=O)c3ccc(F)cc3)cc2)cc1,"binding, competitor, rhodamine fluorescence","semi-quantitative screen, together with: biotinylated TN14003",lowest effective concentration,1 nM
O=C(NCc1ccc(CNS(=O)(=O)c2ccc(F)cc2)cc1)c1ccc(CNc2ncccn2)cc1,"binding, competitive inhibitor, competitive binding","semi-quantitative rhodamine readout, together with: biotinylated TN14003",lowest effective concentration,> 1000 nM
CCN(CC)Cc1ccc(S(=O)(=O)N(C)Cc2ccc(C(C)(C)C)cc2)cc1,"competitive binding, inhibitor, rhodamine fluorescence","lowest significant concentration, together with: biotinylated ligand",effective concentration,1 nM
O=C(NCc1ccc(CNS(=O)(=O)c2cccc(F)c2)cc1)c1ccc(F)cc1,"binding, competitor, rhodamine fluorescence","semi-quantitative screen, together with: biotinylated TN14003",lowest effective concentration,1000 nM
CCN(Cc1ccccc1)Cc1ccc(CN(CC)Cc2ccccc2)cc1,"binding, competition binding","semi-quantitative screen, together with: biotinylated TN14003",lowest effective concentration,1000 nM
O=C(NCc1ccc(CNS(=O)(=O)c2ccc(Cl)cc2)cc1)c1ccc(CNc2ncccn2)cc1,"binding, competitive inhibitor, competitive binding","semi-quantitative rhodamine readout, together with: biotinylated TN14003",lowest effective concentration,100 nM
CN(Cc1ccc(F)cc1)Cc1cccc(CN(C)Cc2ccc(F)cc2)n1,"binding, competition binding","semi-quantitative screen, together with: biotinylated TN14003",lowest effective concentration,1000 nM
Cc1cccc(S(=O)(=O)NCc2ccc(CNC(=O)c3ccc(F)cc3)cc2)c1,"binding, competitor, rhodamine fluorescence","semi-quantitative screen, together with: biotinylated TN14003",lowest effective concentration,1 nM
CCN(CC)CCOc1ccc(NS(=O)(=O)c2ccc(CN3CCCC3)cc2)cc1,"competitive binding, inhibitor, rhodamine fluorescence","lowest significant concentration, together with: biotinylated ligand",effective concentration,10 nM
Cc1ccccc1S(=O)(=O)NCc1ccc(CNC(=O)c2ccc(CNc3ncccn3)cc2)cc1,"binding, competitive inhibitor, competitive binding","semi-quantitative rhodamine readout, together with: biotinylated TN14003",lowest effective concentration,10 nM
CN(Cc1ccc(F)cc1)Cc1ccc(CN(C)Cc2ccc(F)cc2)cc1,"binding, competition binding","semi-quantitative screen, together with: biotinylated TN14003",lowest effective concentration,> 1000 nM
CN(Cc1cccc(F)c1)S(=O)(=O)c1ccc(CN2CCCC2)cc1,"competitive binding, inhibitor, rhodamine fluorescence","lowest significant concentration, together with: biotinylated ligand",effective concentration,1000 nM
CN(Cc1ccncc1)Cc1cccc(CN(C)Cc2ccncc2)n1,"binding, competition binding","semi-quantitative screen, together with: biotinylated TN14003",lowest effective concentration,> 1000 nM
O=C(NCc1ccc(CNS(=O)(=O)c2ccc(-c3ccc(F)cc3)cc2)cc1)c1ccc(F)cc1,"binding, competitor, rhodamine fluorescence","semi-quantitative screen, together with: biotinylated TN14003",lowest effective concentration,100 nM
CN(Cc1ccccc1F)S(=O)(=O)c1ccc(CN2CCCC2)cc1,"competitive binding, inhibitor, rhodamine fluorescence","lowest significant concentration, together with: biotinylated ligand",effective concentration,1000 nM
COc1cccc(CN(C)Cc2ccc(CN(C)Cc3cccc(OC)c3)cc2)c1,"binding, competition binding","semi-quantitative screen, together with: biotinylated TN14003",lowest effective concentration,10 nM
CCN(CC)CCOc1ccc(NS(=O)(=O)c2ccc(CN3CCCCC3)cc2)cc1,"competitive binding, inhibitor, rhodamine fluorescence","lowest significant concentration, together with: biotinylated ligand",effective concentration,100 nM
O=C(NCc1ccc(CNS(=O)(=O)c2cccc3ccccc23)cc1)c1ccc(CNc2ncccn2)cc1,"binding, competitive inhibitor, competitive binding","semi-quantitative rhodamine readout, together with: biotinylated TN14003",lowest effective concentration,1000 nM
CN(Cc1cccc(CN(C)Cc2ccccc2Cl)n1)Cc1ccccc1Cl,"binding, competition binding","semi-quantitative screen, together with: biotinylated TN14003",lowest effective concentration,> 1000 nM
CN(Cc1ccccn1)S(=O)(=O)c1ccc(CN2CCCC2)cc1,"competitive binding, inhibitor, rhodamine fluorescence","lowest significant concentration, together with: biotinylated ligand",effective concentration,1 nM

# A few entries again:
SMILES,test,conditions,quantity,value
CN(Cc1ccncc1)Cc1cccc(CN(C)Cc2ccncc2)n1,"binding, competition binding","semi-quantitative screen, together with: biotinylated TN14003",lowest effective concentration,> 1000 nM
O=C(NCc1ccc(CNS(=O)(=O)c2ccc(F)cc2)cc1)c1ccc(CNc2ncccn2)cc1,"binding, competitive inhibitor, competitive binding","semi-quantitative rhodamine readout, together with: biotinylated TN14003",lowest effective concentration,> 1000 nM
CCN(CC)Cc1ccc(S(=O)(=O)N(C)Cc2ccccc2)cc1,"competitive binding, inhibitor, rhodamine fluorescence","lowest significant concentration, together with: biotinylated ligand",effective concentration,10 nM
